{"data": "Measured values collected from several papers", "note": "A part holds a random share of what one study measured. Positions count from the first letter of the parent shown."}
{"data": "Block 1", "target": "CCNE2, cyclin fold, Cln2 fusion (human)", "technique": "yeast growth competition, sequencing", "matrix": "yeast", "setting": "strong parent motif", "relative to": "not given", "reading": "higher = stronger binding", "starting sequence": "INSM1 docking peptide (human); PKAIRKLHFEDEV"}
{"Substitution": "PKAIRQLHFEDEV [K6Q]", "normalised enrichment score": 1.77}
{"Substitution": "PKAIPKLHFEDEV [R5P]", "normalised enrichment score": 0.0863}
{"Substitution": "PKAIRKLHFEDCV [E12C]", "normalised enrichment score": 2.59}
{"Substitution": "PKAIKKLHFEDEV [R5K]", "normalised enrichment score": 0.16}
{"Substitution": "PKAIRKLHFEQEV [D11Q]", "normalised enrichment score": 1.56}
{"Substitution": "PKAMRKLHFEDEV [I4M]", "normalised enrichment score": 1.24}
{"Substitution": "PQAIRKLHFEDEV [K2Q]", "normalised enrichment score": 1.29}
{"Substitution": "PKAIRKLHNEDEV [F9N]", "normalised enrichment score": 0.397}
{"Substitution": "PKASRKLHFEDEV [I4S]", "normalised enrichment score": 0.605}
{"Substitution": "PYAIRKLHFEDEV [K2Y]", "normalised enrichment score": 1.1}
{"Substitution": "PKAIRKLWFEDEV [H8W]", "normalised enrichment score": 1.26}
{"Substitution": "PKAIRKLHFKDEV [E10K]", "normalised enrichment score": 0.795}
{"Substitution": "PKANRKLHFEDEV [I4N]", "normalised enrichment score": 0.879}
{"Substitution": "PKAIRKLHFHDEV [E10H]", "normalised enrichment score": 0.795}
{"Substitution": "PKAIRILHFEDEV [K6I]", "normalised enrichment score": 0.759}
{"Substitution": "PLAIRKLHFEDEV [K2L]", "normalised enrichment score": 0.766}
{"Substitution": "PKAIRKLHFEDNV [E12N]", "normalised enrichment score": 1.97}
{"data": "Block 2", "target": "RNA binding protein fox-1 homolog 2, RRM domain, GST-SBP tag (RBFOX2, Homo sapiens, UniProt O43251-10, residues 100-194)", "technique": "RNA Bind-n-Seq", "form": "RNA", "matrix": "in vitro", "tested at": "365 nM", "setting": "natural RNA segment, single round, ends assumed", "relative to": "no-protein control", "reading": "higher = stronger binding", "constant ends, left off below": "GGGAGUUCUACAGUCCGACGAUC … UGGAAUUCUCGGGUGCCAA", "Construct (chain)": "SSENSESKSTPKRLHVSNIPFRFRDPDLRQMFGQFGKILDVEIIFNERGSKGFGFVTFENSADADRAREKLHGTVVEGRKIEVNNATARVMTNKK"}
{"Oligonucleotide": "UCGAGGAGGAGAUGGCCUAGUGUUACGGCUCGAGACAGGAGGCCAGCCCAGGGGGUUCUGCUUAUGUGUCCCCGUGGCUCUCCACAAAAGGGAGCUAGCACCUCUCCAUC", "RBNS enrichment (R)": 0.48}
{"Oligonucleotide": "UUCCUGCCAGAAACGACCCUCUGUGGCCGAUGGGCCAUGCGGGCCCCUCGCAGCCAACUCAGCCAGUGUUGGGACUGGCUCAGAGCCCAUGGGGGCUGGAGGGGGGCAGC", "RBNS enrichment (R)": 0.699}
{"Oligonucleotide": "UUAACAUAAAUCAUGCAUGUCUGUUUACUUUAGUGACGUUCCACAGAAUAAAAGGAAACAAGUUUGCCAUCUUGGUGUUGCAAUAUGAAUUACAGCCUUAACAGACUGUG", "RBNS enrichment (R)": 4.02}
{"Oligonucleotide": "AACCAGUGAAAAUGAAAGGAAGUUUCAGUAUUAGAUGCACUUAAGUUAGCCUCCACCACCCUUUCCCCCUUCUCUUAGUUAUUGCUGAAGAGGGUUGGUAUAAAAAUAAU", "RBNS enrichment (R)": 0.595}
{"Oligonucleotide": "UCCCUUCGAAGGCCCAGAUAAGACAGGGAACACUUGUGAGCACACAGAGCAGCAUCUGAUGCCCUGUGGUGUUUGGCAUGUGCCCCCUGUCUACUGACCAAUCAGUGUGG", "RBNS enrichment (R)": 0.274}
{"Oligonucleotide": "GAGGGGUUAAUGUGAGGCCUUUUUGAAAAAUGAAUAUUUUGAUAAAAAGAAUUCUUGUUUUAGCACAGUUGAUGCACAUAAGUGAUUCUCAUAUUUGUUGUAUAAACUGG", "RBNS enrichment (R)": 0.493}
{"Oligonucleotide": "AAGGGGGGCAGUCAGAACAGCUGUUCCCCACUCCGUGGUUCUCAAAAUCAUAAACCAUGGCUACUCUUGGGAACCACCCGGCCAUGUGGUCGCCAAGUAGAGCAAGCCCC", "RBNS enrichment (R)": 0.263}
{"Oligonucleotide": "UUUACCGAAGACAUGCAUACUCCAUCGAUGUUGUAUUCACAGUGGCUGAGGAAUUCUUGUACGCAGUUUCUUUGGCUUCACGAAGCCGAUUAAAAGACCGUGUGAAAUGA", "RBNS enrichment (R)": 0.267}
{"data": "Block 3", "target": "Sal-like protein 4, full length isoform B (SALL4, Homo sapiens, UniProt Q9UJQ4-2, residues 1-616)", "technique": "universal PBM", "form": "double-stranded DNA, one strand shown", "matrix": "in vitro", "tested at": "not given", "setting": "8-mer, flanks averaged, mean of replicates", "reading": "higher = stronger binding", "Construct (chain)": "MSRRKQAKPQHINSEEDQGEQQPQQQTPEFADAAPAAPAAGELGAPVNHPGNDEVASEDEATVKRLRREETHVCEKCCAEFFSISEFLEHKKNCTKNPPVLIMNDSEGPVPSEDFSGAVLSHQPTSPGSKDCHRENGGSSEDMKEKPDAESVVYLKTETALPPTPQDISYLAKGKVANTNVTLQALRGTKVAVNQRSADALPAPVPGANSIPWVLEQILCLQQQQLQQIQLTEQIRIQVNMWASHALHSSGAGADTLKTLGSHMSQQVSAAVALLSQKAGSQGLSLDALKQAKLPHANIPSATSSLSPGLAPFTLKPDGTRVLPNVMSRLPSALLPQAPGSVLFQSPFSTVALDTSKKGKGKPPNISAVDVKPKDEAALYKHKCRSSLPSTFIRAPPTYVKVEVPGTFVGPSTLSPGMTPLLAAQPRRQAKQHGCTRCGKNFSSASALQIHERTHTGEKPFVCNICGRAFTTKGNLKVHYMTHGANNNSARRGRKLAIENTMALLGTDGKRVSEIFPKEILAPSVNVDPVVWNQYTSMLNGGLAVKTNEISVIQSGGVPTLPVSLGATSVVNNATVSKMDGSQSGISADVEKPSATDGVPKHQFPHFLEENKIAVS"}
{"Oligonucleotide": "AGATCATA", "E-score": 0.287}
{"Oligonucleotide": "GGTCCCAC", "E-score": -0.22}
{"Oligonucleotide": "AGTCCCAT", "E-score": 0.0396}
{"Oligonucleotide": "TGCTGGAA", "E-score": -0.00952}
{"Oligonucleotide": "CCGGGTCG", "E-score": -0.364}
{"Oligonucleotide": "AGCGCAAT", "E-score": 0.137}
{"Oligonucleotide": "ACTCTTGG", "E-score": -0.0787}
{"Oligonucleotide": "ATGCAGAA", "E-score": 0.181}
{"Oligonucleotide": "CCGTTCAG", "E-score": -0.214}
{"Oligonucleotide": "ATGACACC", "E-score": 0.0154}
{"Oligonucleotide": "AATCCACC", "E-score": -0.0156}
{"Oligonucleotide": "GCGTGCTA", "E-score": -0.115}
{"Oligonucleotide": "CACATACC", "E-score": 0.0753}
{"Oligonucleotide": "AGTTCCGC", "E-score": -0.195}
{"Oligonucleotide": "ATCTTATA", "E-score": 0.252}
{"Oligonucleotide": "CTTGGCAA", "E-score": -0.0749}
{"Oligonucleotide": "ATCCCCAG", "E-score": -0.113}
{"Oligonucleotide": "ATGGGCCG", "E-score": -0.237}
{"Oligonucleotide": "CGCATCTA", "E-score": 0.00091}
{"data": "Block 4", "target": "ABI1, truncated, D143A, DHFR fusion (Arabidopsis thaliana)", "technique": "DHFR PCA, deep sequencing", "matrix": "yeast", "setting": "methotrexate growth selection, single substitutions", "together with": "(+)-ABA 0.11 µM", "relative to": "wild-type fitted maximum", "reading": "higher = stronger binding", "starting sequence": "PYL1, truncated, DHFR fusion (Arabidopsis thaliana); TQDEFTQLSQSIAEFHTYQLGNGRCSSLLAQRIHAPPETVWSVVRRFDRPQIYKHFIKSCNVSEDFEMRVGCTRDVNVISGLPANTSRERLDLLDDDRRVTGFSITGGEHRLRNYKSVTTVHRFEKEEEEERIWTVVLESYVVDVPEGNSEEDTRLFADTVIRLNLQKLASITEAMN"}
{"Substitution": "G102C", "relative binding score [%]": -5.02}
{"Substitution": "S117R", "relative binding score [%]": -3.38}
{"Substitution": "H110V", "relative binding score [%]": 11.3}
{"Substitution": "R90M", "relative binding score [%]": 0.939}
{"Substitution": "L112C", "relative binding score [%]": -6.89}
{"Substitution": "G23T", "relative binding score [%]": 1.49}
{"Substitution": "V143K", "relative binding score [%]": -0.964}
{"Substitution": "D144G", "relative binding score [%]": 3.49}
{"Substitution": "N77W", "relative binding score [%]": 18}
{"Substitution": "D92E", "relative binding score [%]": 14.3}
{"Substitution": "A170P", "relative binding score [%]": -0.0927}
{"Substitution": "N22Q", "relative binding score [%]": 41.1}
{"Substitution": "E67A", "relative binding score [%]": 14.7}
{"Substitution": "N77Q", "relative binding score [%]": 65.1}
{"Substitution": "F5G", "relative binding score [%]": 4.47}
{"Substitution": "M68P", "relative binding score [%]": 8.01}
{"Substitution": "D97L", "relative binding score [%]": 5.61}
{"Substitution": "N22G", "relative binding score [%]": 26.5}
{"Substitution": "I12K", "relative binding score [%]": -1.32}
{"Substitution": "R88T", "relative binding score [%]": 48.3}
{"Substitution": "G108L", "relative binding score [%]": 1.65}
{"Substitution": "R132I", "relative binding score [%]": 16}
{"note": "A few entries again (block 1):"}
{"Substitution": "PKAMRKLHFEDEV [I4M]", "normalised enrichment score": 1.24}
{"Substitution": "PQAIRKLHFEDEV [K2Q]", "normalised enrichment score": 1.29}
{"Substitution": "PKAIRKLHNEDEV [F9N]", "normalised enrichment score": 0.397}
{"Substitution": "PKASRKLHFEDEV [I4S]", "normalised enrichment score": 0.605}
{"Substitution": "PYAIRKLHFEDEV [K2Y]", "normalised enrichment score": 1.1}
{"Substitution": "PKAIRKLWFEDEV [H8W]", "normalised enrichment score": 1.26}
{"Substitution": "PKAIRKLHFKDEV [E10K]", "normalised enrichment score": 0.795}
{"Substitution": "PKANRKLHFEDEV [I4N]", "normalised enrichment score": 0.879}
